Assay results pooled from the literature.
Every numbered part comes from another study and shows a few of its results, in no order. Substitutions count along the parent as printed.

Set 1
Target: Signal transducer and activator of transcription 1-alpha/beta, full length (STAT1, Homo sapiens, UniProt P42224, residues 1-750)
Chain of UniProt P42224 (whole entry, looked up): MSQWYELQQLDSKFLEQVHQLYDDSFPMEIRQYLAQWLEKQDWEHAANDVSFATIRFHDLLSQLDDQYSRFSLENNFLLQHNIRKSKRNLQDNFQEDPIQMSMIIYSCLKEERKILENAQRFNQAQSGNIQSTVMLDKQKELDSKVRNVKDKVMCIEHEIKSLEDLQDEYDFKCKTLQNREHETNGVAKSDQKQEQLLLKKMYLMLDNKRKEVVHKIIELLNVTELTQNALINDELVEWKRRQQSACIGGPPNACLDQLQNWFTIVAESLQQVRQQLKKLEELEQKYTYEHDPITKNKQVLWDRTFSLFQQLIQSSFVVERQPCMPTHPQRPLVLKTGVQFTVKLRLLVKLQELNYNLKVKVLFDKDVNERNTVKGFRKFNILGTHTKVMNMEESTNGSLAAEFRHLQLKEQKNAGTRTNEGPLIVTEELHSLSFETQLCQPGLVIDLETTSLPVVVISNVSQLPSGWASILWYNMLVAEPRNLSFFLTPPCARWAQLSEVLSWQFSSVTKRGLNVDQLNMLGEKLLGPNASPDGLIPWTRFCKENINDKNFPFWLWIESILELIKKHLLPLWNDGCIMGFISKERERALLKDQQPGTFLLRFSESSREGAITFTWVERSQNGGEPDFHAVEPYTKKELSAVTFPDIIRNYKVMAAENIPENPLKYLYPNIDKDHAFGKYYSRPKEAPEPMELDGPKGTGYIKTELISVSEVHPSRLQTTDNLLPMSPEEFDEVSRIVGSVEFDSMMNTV
Technique: protein-binding microarray
Form: hairpin DNA
Medium: in vitro
Tested at: not given
Notes: whole hairpin DNA, median over replicate spots
Relative to: not given
Direction: higher = stronger binding
Constant ends, left off below: GAGGCC … GGCCTCACACTCTTTCCCTACACG
| Sequence | median fluorescence |
| --- | --- |
| TTTCCCGGGAGCCTCCTGGCTCCCGGGAAA (5mC at 28) | 1040 a.u. |
| CGTCCCGGAAGCCTCCTGGCTTCCGGGACG | 1110 a.u. |
| TTTCCCTGAAGCCTCCTGGCTTCAGGGAAA | 1200 a.u. |
| TTTCCGGGAAGCCTCCTGGCTTCCCGGAAA (5mC at 11 31) | 3290 a.u. |
| TTTCCCGGCGGCCTCCTGGCCGCCGGGAAA (5mC at 27) | 1950 a.u. |
| TTTCCCCCAAGCCTCCTGGCTTGGGGGAAA (5mC at 13) | 886 a.u. |
| CCTCCCGGAAGCCTCCTGGCTTCCGGGAGG (5mC at 7) | 1470 a.u. |
| TTTCCCGGCTGCCTCCTGGCAGCCGGGAAA | 936 a.u. |

Set 2
Target: Sal-like protein 4, full length isoform B (SALL4, Homo sapiens, UniProt Q9UJQ4-2, residues 1-616)
Technique: universal PBM
Form: double-stranded DNA, one strand shown
Medium: in vitro
Tested at: not given
Notes: 8-mer, flanks averaged, mean of replicates
Direction: higher = stronger binding
| Sequence | E-score |
| --- | --- |
| GATGATAA | 0.238 |
| CACACAGA | -0.0679 |
| AAAACGCC | -0.0132 |
| CCCAGGCA | -0.191 |
| GCTAGACC | -0.268 |
| ATGAACAA | 0.294 |
| AGAAGCCT | 0.0476 |
| GATGATGA | 0.0904 |

Further values, each from its own experiment
P1: viral docking peptide; KGVKRKLFAEDSS; partner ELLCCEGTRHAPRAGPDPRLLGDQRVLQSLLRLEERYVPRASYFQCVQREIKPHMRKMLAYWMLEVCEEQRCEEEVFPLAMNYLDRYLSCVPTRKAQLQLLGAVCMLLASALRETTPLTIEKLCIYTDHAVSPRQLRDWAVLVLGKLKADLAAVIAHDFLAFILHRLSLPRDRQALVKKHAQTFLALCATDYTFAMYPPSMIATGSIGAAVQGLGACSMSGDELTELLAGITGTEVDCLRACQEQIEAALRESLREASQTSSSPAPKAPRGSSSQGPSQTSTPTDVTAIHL
| Substance | target | assay | test system | conditions | scale | endpoint | result |
| --- | --- | --- | --- | --- | --- | --- | --- |
| P1 D11I | CCND3, cyclin fold, Cln2 fusion (human) | yeast growth competition, sequencing | yeast | weak parent motif | relative to: not given, higher = stronger binding | normalised enrichment score | 0.185 |
| VVRVRRELL | HLA class I histocompatibility antigen, A alpha chain, allele A*25:01 (Homo sapiens, UniProt P04439) | peptide-MHC binding | peptide | concentration not given |  | binding | inactive |

Some of these lines once more (set 1):
| Sequence | median fluorescence |
| --- | --- |
| TTTCCCGGGAGCCTCCTGGCTCCCGGGAAA (5mC at 28) | 1040 a.u. |
| TTTCCGGGAAGCCTCCTGGCTTCCCGGAAA (5mC at 11 31) | 3290 a.u. |
